# Experimental data pooled from the literature.
# Lines come from different studies, so protocols differ. Several values in a cell are separate wells, animals, samples, runs or records. ± marks the error that the study gave.
# CD209: CD209 antigen (CD209, Homo sapiens, UniProt Q9NNX6)
# UniProt Q9NNX6, sequence (whole entry, looked up): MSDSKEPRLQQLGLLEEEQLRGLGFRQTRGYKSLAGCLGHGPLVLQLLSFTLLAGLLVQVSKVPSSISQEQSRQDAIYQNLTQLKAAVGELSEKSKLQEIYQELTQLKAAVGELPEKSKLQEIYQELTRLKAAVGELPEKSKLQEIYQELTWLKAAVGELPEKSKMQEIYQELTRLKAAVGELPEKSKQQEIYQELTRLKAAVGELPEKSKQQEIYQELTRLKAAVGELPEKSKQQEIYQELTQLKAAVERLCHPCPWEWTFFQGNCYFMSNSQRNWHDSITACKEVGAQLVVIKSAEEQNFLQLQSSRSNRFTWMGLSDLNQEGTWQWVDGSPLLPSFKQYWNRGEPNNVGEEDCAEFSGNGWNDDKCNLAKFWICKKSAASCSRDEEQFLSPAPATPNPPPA
# Kir3.1/Kir3.2: Kir3.1/Kir3.2 (Homo sapiens, UniProt P48051+P48549)
# UniProt P48051, sequence (whole entry, looked up): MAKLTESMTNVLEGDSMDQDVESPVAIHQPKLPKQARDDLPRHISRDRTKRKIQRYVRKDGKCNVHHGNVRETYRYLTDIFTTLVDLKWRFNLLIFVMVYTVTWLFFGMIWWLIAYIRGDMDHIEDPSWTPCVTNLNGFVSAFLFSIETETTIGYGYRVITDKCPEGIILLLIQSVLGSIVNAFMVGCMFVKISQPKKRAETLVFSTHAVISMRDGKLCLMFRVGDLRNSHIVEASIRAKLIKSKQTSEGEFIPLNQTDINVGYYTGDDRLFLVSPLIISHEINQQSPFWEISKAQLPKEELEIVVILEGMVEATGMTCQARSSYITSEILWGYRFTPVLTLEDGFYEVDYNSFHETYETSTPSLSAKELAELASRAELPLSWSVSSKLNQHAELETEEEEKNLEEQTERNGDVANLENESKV
# UniProt P48549, sequence (whole entry, looked up): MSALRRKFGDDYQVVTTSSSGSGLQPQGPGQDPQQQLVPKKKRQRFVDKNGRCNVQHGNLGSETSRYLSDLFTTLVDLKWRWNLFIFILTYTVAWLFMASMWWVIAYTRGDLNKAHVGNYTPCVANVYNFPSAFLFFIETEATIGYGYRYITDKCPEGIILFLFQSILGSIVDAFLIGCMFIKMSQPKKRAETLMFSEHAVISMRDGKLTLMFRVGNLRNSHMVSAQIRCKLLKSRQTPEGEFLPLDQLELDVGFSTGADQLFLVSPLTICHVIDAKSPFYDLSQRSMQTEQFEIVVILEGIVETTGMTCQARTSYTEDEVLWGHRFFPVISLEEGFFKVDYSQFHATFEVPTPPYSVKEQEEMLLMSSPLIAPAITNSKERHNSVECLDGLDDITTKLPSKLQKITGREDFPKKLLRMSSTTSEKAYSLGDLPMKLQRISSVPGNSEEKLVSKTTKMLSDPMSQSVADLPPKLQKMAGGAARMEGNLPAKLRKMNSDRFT
# FECH: Ferrochelatase, mitochondrial (FECH, Homo sapiens, UniProt P22830)
# UniProt P08235, sequence (whole entry, looked up): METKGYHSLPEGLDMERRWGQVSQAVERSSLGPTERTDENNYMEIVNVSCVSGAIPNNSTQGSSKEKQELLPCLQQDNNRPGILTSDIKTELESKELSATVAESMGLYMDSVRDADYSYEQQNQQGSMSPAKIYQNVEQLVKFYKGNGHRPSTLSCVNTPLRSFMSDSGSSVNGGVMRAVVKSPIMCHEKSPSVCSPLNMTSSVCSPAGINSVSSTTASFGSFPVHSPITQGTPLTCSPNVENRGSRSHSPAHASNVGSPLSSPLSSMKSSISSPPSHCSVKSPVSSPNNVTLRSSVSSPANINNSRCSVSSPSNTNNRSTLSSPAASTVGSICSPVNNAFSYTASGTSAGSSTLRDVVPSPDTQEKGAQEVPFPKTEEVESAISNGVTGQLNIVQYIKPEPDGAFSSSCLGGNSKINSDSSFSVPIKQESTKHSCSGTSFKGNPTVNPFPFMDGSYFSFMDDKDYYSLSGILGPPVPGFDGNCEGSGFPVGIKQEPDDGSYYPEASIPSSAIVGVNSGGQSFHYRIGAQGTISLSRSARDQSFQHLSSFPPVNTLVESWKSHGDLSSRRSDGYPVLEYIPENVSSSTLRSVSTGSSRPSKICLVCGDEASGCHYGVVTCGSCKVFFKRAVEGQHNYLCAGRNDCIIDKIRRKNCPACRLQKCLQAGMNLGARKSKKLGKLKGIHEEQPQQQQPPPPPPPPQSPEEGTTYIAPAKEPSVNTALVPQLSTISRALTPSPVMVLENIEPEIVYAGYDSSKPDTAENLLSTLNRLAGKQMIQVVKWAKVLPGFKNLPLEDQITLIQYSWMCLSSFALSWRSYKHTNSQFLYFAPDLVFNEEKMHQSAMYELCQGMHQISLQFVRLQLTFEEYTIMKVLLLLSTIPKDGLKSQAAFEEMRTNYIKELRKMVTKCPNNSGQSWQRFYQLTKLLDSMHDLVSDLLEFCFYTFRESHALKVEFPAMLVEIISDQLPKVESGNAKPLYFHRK
# UniProt P22830, sequence (whole entry, looked up): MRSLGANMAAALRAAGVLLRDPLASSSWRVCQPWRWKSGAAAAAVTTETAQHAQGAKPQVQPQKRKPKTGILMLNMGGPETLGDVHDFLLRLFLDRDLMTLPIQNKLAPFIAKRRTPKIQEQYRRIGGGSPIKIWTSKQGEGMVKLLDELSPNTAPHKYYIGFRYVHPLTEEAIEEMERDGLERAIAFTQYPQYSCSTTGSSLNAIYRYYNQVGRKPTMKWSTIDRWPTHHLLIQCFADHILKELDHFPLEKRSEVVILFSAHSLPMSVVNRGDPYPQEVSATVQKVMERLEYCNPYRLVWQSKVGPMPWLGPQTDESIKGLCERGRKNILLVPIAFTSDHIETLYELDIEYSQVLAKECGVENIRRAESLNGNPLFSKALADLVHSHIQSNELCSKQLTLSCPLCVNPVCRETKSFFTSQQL
# UniProt P56373, sequence (whole entry, looked up): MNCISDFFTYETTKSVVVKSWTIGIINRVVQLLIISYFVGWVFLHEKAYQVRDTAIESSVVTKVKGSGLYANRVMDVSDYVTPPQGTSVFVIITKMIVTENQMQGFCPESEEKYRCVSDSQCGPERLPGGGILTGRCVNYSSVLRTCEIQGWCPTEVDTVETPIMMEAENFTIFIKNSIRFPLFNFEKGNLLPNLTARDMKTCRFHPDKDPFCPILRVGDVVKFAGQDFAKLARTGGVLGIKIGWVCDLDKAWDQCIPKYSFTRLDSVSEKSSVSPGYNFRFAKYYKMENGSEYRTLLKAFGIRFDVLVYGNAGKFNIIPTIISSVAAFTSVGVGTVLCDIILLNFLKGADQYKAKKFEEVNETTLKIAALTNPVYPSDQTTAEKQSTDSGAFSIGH
# UniProt Q920A1, sequence (whole entry, looked up): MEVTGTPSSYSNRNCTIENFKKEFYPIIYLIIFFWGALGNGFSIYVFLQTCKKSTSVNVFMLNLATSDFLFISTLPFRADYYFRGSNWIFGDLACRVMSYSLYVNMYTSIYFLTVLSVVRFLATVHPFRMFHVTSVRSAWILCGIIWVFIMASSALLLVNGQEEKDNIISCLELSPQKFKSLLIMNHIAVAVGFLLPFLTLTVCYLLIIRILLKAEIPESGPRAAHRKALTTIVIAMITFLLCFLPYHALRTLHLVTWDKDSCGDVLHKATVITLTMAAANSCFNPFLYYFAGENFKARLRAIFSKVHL
# UniProt P34995, sequence (whole entry, unmodified, looked up): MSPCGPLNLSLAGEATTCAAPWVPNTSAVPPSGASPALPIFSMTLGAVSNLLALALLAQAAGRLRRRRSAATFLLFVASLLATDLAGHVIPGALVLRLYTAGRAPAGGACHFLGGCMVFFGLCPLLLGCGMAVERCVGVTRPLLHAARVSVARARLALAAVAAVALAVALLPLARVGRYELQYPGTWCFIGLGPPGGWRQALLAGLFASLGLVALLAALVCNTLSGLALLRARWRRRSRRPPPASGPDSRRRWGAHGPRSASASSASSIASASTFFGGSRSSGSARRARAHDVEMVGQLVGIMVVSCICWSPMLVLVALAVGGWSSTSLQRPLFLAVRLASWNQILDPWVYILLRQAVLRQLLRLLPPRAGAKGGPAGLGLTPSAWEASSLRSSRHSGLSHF
# UniProt P28471, sequence (whole entry, looked up): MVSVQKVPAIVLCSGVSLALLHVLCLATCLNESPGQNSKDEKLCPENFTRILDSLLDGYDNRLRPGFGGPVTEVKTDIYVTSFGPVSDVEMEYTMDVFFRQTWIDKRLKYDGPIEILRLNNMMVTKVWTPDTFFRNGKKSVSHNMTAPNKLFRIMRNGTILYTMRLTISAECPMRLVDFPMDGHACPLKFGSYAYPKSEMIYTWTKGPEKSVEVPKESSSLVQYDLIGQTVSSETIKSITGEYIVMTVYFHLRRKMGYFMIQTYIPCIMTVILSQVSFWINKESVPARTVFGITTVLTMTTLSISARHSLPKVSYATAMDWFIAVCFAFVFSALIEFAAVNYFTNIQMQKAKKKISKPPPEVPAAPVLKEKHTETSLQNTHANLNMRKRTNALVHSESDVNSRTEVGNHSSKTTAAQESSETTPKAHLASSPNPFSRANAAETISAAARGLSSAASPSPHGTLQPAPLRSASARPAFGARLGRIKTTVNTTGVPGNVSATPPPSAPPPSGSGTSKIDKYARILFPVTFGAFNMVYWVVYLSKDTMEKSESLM
# UniProt P14618, sequence (whole entry, looked up): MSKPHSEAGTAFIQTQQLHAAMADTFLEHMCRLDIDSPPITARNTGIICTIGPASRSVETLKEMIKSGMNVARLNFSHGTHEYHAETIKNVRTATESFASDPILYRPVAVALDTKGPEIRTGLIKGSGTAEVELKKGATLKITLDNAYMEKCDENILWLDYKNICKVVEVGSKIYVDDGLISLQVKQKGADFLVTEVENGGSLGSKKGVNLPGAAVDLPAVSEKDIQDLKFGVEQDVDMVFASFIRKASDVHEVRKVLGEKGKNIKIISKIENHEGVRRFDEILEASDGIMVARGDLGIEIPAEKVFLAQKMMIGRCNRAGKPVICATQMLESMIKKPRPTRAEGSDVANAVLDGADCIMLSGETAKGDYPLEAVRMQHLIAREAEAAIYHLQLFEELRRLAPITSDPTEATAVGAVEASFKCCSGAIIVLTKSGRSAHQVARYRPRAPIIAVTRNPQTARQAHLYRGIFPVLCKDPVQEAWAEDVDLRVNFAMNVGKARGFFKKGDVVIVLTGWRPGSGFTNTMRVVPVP
SMILES,target,test,test system,conditions,EC50
C#Cc1ccc(C(F)(F)F)cc1C=O,CD209,"binding, plate-based HRP",,"overnight, room temperature",35 µM
COc1ccc(Cl)cc1C(=O)NCCc1ccc(S(=O)(=O)NC(=O)NC2CCCCC2)cc1,"Pannexin-1 (Panx1, Mus musculus, UniProt Q9JIP4)","ion current, inhibitor, two-electrode voltage clamp",Xenopus oocytes,+50 mV pulses,45 µM
O=C(COc1ccc(C(F)(F)F)cc1C(F)(F)F)Nc1cc(C2CC2)nn1C1CCOCC1,Kir3.1/Kir3.2,"activator, thallium flux",HEK293,,0.349 µM
C[C@]12CCC(=O)C=C1CC[C@@H]1[C@@H]2[C@@H](O)C[C@@]2(C)[C@H]1CC[C@]2(O)C(=O)CO,"NR3C2 (Homo sapiens, UniProt P08235)","reporter gene, agonist, Gaussia luciferase reporter",,without 18β-glycyrrhetinic acid,> 2 µM and ~2 µM
CCCCC[C@H](O)/C=C/[C@H]1[C@H](O)CC(=O)[C@@H]1C/C=C\CCCC(=O)O,"PTGER1 (Homo sapiens, UniProt P34995, G92A)","IP1 accumulation, agonist",AD293,EP1 G92A mutant,0.0261 µM
Nc1ncnc2c1ncn2[C@@H]1O[C@H](COP(=O)(O)OP(=O)(O)OP(=O)(O)O)[C@@H](O)[C@H]1O,"P2X purinoceptor 3 (P2RX3, Homo sapiens, UniProt P56373)","ion current, agonist, patch clamp",HEK293 expressing wild-type,,0.286 ± 0.011 µM
Nc1nc2c(ncn2[C@@H]2O[C@@H]3COP(=O)(O)O[C@H]3[C@H]2O)c(=O)[nH]1,"Cone cGMP-gated channel (Morone saxatilis, UniProt Q3I0N1+Q3I0N2)","channel current, agonist, suction electrode","Morone saxatilis, cone outer segments",with: 20 µM Ca2+,316 ± 43.9 µM
CCCCC/C=C\C\C=C/C=C/C=C/[C@@H](SC[C@H](NC(=O)CC[C@H](N)C(=O)O)C(=O)NCC(=O)O)[C@@H](O)CCCC(=O)O,"Cysteinyl leukotriene receptor 2 (Cysltr2, Mus musculus, UniProt Q920A1)",potentiation of cAMP,HEK293T transfected with Cysltr2,with: forskolin 1 µM,0.0007 µM
CCc1cc(NC(=O)COc2ccc(Cl)cc2Cl)n(CC(F)(F)F)n1,Kir3.1/Kir3.2,"activator, thallium flux",HEK293,,0.527 µM
CCCCCCCC/C=C\CCCCCCCC(=O)NCCc1ccc(O)c(O)c1,"Trpv1 (Mus musculus, UniProt Q704Y3, S513A)","ion current, agonist, whole-cell patch clamp",,"24 °C, +80 mV",0.38 ± 0.11 µM
Nc1ncnc2c1ncn2[C@@H]1O[C@H](COP(=O)(O)OP(=O)(O)OC[C@H]2OC(O)[C@H](O)[C@@H]2O)[C@@H](O)[C@H]1O (stereo partly shown),"TRPM2 (Nematostella vectensis, UniProt A7T1N0, K147A)","channel activation, activator, inside-out patch clamp",,"25 °C, -20 mV, with: 125 µM Ca2+, 2.5 µM diC8-PIP2",9.9 ± 1.2 µM
COc1cc(Nc2ncc3c(n2)-c2ccc(Cl)cc2C(c2c(F)cccc2OC)=NC3)ccc1C(=O)NCCOCCOCCNC(=O)COc1cccc2c1C(=O)N(C1CCC(=O)NC1=O)C2=O (stereo not shown),FECH,"binding, kinobead competition",MV4-11 cell lysate,,9.83 µM
COc1cccc(-n2nc3c4cc(Cl)ccc4[nH]cc-3c2=O)c1,"Gamma-aminobutyric acid receptor subunit alpha-4/beta-3, with delta subunit (Rattus norvegicus, UniProt P28471+P63079)","GABA-evoked current, two-electrode voltage clamp",,"α4β3δ receptor, with: GABA EC3-10",15.7 µM
COc1c(Nc2cc(C(F)(F)F)cc(C(F)(F)F)c2)c(=O)c1=O,CD209,"binding, plate-based HRP",,"overnight, room temperature",15 µM
O=C(COc1cccc(Cl)c1Cl)Nc1cc(C2CCC2)nn1C1CCC(F)(F)CC1,Kir3.1/Kir3.2,"activator, thallium flux",HEK293,,0.45 µM
FC(F)(F)c1cc(Nc2nc(Cl)nc(Cl)n2)cc(C(F)(F)F)c1,CD209,"binding, plate-based HRP",,"overnight, room temperature",2.8 µM
O=C(COc1ccc(C(F)(F)F)cc1C(F)(F)F)Nc1cc(C2CC2)nn1CC(F)(F)F,Kir3.1/Kir3.2,"activator, thallium flux",HEK293,,1.31 µM
O=C(COP(=O)(O)O)[C@@H](O)[C@H](O)[C@H](O)COP(=O)(O)O,"Pyruvate kinase PKM (PKM, Homo sapiens, UniProt P14618)","pyruvate kinase activity, activator",HeLa cell lysate,with: AIM,0.814 ± 0.0418 µM
COc1cc(Nc2ncc3c(n2)-c2ccc(Cl)cc2C(c2c(F)cccc2OC)=NC3)ccc1C(=O)O,FECH,"binding, kinobead competition",MV4-11 cell lysate,,> 30 µM
N#Cc1ccsc1NC(=O)COc1cccc(Cl)c1Cl,Kir3.1/Kir3.2,"activator, thallium flux",HEK293,,1.3 µM
O=C(ON1C(=O)CCC1=O)c1cc(C(F)(F)F)cc(C(F)(F)F)c1,CD209,"binding, grating-coupled interferometry",,"Man(α1,2)Man-PEG3 chip surface",16 µM
O=C(COc1cccc(Cl)c1Cl)Nc1cc(C2CCC2)nn1CC(F)(F)F,Kir3.1/Kir3.2,"activator, thallium flux",HEK293,,2.98 µM
Cc1nn(-c2nc3c(F)cc(F)cc3s2)c(O)c1C(c1ccc(C(F)(F)F)cc1)c1c(C)nn(-c2nc3c(F)cc(F)cc3s2)c1O,"Cyclic GMP-AMP synthase, catalytic domain; with DNA (CGAS, Homo sapiens, UniProt Q8N884)",cGAS-DNA condensate disruption,,"concentration not given, with: Cy3-labelled DNA",4.9 ± 0.7 µM
O=C(COc1ccc(Cl)cc1Cl)Nc1cc(C2CC2)nn1CC(F)(F)F,Kir3.1/Kir3.2,"activator, thallium flux",HEK293,,0.526 µM
Cn1cc2c(C(=O)O)ccc(NS(=O)(=O)c3ccc(OCC4CCC4)c(Cl)c3)c2n1,"HRH1 (Homo sapiens, UniProt P35367)",agonist,,,> 10 µM

# For quick reference, copied from above:
SMILES,target,test,test system,conditions,EC50
CCCCC/C=C\C\C=C/C=C/C=C/[C@@H](SC[C@H](NC(=O)CC[C@H](N)C(=O)O)C(=O)NCC(=O)O)[C@@H](O)CCCC(=O)O,"Cysteinyl leukotriene receptor 2 (Cysltr2, Mus musculus, UniProt Q920A1)",potentiation of cAMP,HEK293T transfected with Cysltr2,with: forskolin 1 µM,0.0007 µM
COc1cc(Nc2ncc3c(n2)-c2ccc(Cl)cc2C(c2c(F)cccc2OC)=NC3)ccc1C(=O)O,FECH,"binding, kinobead competition",MV4-11 cell lysate,,> 30 µM
Cn1cc2c(C(=O)O)ccc(NS(=O)(=O)c3ccc(OCC4CCC4)c(Cl)c3)c2n1,"HRH1 (Homo sapiens, UniProt P35367)",agonist,,,> 10 µM
